Published values gathered from unrelated publications.
A part holds a random share of what one study measured. Several values in a cell are separate wells, animals, samples, runs or records.
Chain of UniProt P50750 (whole entry, looked up): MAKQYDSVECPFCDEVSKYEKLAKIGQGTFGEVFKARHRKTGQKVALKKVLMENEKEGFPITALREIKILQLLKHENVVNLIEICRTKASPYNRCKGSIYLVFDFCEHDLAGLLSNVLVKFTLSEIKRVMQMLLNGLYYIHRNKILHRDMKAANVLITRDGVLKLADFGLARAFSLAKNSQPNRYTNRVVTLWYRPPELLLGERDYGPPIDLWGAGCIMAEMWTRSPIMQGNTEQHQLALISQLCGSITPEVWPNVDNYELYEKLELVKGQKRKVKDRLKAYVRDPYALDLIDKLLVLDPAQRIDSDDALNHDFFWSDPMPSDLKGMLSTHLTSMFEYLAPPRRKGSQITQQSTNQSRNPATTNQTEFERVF
Chain of UniProt P78362 (whole entry, looked up): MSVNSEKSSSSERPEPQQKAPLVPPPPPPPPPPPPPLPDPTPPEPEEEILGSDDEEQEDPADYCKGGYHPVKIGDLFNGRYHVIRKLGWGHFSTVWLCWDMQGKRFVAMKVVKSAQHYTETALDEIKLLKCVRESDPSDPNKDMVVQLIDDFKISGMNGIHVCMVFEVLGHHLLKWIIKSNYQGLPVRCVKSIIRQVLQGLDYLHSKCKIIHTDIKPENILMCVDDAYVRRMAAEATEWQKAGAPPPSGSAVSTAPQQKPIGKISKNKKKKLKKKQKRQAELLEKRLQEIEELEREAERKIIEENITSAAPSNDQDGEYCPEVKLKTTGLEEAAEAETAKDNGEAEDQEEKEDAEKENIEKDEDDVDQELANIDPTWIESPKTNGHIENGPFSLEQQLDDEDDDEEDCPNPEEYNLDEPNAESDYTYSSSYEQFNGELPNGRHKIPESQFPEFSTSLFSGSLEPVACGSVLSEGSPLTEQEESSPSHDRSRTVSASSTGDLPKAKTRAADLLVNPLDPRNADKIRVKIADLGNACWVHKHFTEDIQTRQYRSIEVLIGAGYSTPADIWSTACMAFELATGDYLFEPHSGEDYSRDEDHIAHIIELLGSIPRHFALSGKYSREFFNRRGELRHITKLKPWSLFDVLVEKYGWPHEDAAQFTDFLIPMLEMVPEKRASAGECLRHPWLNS
Chain of UniProt P50613 (whole entry, looked up): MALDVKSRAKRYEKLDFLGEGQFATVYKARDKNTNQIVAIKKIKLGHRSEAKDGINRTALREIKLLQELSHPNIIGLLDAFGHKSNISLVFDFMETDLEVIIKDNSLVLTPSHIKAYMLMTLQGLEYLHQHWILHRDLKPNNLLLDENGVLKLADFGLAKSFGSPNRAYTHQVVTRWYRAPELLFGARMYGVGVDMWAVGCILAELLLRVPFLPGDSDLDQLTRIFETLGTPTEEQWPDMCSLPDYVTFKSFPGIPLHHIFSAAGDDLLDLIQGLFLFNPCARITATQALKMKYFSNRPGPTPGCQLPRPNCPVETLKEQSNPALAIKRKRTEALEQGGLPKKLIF
Chain of UniProt O94806 (whole entry, looked up): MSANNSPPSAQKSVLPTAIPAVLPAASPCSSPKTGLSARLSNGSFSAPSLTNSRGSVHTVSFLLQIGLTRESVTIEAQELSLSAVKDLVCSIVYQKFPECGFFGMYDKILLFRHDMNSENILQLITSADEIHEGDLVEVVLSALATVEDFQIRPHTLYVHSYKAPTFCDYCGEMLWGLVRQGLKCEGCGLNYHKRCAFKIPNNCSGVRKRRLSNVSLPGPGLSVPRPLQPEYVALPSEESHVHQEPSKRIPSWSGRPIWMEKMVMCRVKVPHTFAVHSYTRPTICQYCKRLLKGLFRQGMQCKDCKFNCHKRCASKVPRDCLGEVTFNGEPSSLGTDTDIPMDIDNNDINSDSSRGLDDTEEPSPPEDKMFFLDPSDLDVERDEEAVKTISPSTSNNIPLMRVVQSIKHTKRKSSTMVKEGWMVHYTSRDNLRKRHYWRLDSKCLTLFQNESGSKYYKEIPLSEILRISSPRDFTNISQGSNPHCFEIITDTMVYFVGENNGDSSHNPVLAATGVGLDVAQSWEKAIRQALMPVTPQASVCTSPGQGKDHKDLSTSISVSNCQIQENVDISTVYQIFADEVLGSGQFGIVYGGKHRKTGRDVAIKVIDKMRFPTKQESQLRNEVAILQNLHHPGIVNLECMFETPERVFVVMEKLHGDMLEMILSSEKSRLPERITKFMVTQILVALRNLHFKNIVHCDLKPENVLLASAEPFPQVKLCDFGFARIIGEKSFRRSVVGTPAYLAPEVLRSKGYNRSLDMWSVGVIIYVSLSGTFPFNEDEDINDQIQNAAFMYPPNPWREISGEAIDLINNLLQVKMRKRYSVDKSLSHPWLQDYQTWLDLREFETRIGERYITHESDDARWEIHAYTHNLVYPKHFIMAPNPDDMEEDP
Chain of UniProt Q16816 (whole entry, looked up): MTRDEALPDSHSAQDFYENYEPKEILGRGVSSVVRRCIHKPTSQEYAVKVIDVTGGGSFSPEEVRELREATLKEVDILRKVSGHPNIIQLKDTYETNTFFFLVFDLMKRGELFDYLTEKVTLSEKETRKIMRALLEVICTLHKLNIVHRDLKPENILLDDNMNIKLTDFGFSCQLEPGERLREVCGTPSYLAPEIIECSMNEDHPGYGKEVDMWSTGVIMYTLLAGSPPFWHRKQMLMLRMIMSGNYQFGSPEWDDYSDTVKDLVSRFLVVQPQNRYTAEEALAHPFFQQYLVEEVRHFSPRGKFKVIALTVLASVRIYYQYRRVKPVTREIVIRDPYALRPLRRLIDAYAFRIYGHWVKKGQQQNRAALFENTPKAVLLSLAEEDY
Chain of UniProt Q13043 (whole entry, looked up): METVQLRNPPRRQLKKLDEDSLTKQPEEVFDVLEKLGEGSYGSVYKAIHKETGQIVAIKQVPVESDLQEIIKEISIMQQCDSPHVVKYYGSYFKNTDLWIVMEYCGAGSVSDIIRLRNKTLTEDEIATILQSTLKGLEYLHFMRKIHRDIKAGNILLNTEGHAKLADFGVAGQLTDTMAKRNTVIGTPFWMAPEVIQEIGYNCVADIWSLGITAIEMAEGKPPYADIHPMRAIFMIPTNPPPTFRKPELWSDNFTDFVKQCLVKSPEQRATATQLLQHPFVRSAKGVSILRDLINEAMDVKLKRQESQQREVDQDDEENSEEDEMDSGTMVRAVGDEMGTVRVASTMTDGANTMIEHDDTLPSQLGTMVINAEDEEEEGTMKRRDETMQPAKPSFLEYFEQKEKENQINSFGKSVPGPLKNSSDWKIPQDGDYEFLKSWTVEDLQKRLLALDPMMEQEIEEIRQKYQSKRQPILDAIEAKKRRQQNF
Chain of UniProt Q02763 (whole entry, looked up): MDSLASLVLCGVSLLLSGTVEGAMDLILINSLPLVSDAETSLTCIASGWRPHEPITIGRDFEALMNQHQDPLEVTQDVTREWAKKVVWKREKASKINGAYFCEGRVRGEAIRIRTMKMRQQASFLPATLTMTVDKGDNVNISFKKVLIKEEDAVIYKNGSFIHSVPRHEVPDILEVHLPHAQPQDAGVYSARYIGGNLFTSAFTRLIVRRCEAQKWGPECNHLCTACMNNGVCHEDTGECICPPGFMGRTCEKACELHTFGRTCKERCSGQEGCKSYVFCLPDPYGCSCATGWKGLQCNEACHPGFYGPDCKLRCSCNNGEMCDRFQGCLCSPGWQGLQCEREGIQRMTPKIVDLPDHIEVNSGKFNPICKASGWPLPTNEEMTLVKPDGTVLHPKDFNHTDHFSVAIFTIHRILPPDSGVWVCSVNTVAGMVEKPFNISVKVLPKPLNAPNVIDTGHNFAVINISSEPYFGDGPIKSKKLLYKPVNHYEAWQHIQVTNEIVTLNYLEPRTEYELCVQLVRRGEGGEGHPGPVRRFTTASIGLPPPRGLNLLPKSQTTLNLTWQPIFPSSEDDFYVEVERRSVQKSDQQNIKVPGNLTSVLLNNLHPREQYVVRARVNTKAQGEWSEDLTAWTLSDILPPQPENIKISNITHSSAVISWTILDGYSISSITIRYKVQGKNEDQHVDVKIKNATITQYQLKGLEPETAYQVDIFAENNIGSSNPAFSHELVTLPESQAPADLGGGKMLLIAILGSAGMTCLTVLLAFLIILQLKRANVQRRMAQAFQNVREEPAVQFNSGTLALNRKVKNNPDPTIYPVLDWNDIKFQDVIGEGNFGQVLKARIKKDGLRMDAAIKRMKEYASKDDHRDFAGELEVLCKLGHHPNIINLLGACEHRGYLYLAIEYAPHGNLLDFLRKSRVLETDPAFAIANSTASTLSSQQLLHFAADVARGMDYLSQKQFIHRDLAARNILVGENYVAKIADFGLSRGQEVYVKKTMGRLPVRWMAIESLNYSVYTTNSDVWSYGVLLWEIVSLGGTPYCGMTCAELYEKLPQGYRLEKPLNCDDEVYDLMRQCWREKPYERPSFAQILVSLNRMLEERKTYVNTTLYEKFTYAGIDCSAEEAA
Chain of UniProt Q13557 (whole entry, looked up): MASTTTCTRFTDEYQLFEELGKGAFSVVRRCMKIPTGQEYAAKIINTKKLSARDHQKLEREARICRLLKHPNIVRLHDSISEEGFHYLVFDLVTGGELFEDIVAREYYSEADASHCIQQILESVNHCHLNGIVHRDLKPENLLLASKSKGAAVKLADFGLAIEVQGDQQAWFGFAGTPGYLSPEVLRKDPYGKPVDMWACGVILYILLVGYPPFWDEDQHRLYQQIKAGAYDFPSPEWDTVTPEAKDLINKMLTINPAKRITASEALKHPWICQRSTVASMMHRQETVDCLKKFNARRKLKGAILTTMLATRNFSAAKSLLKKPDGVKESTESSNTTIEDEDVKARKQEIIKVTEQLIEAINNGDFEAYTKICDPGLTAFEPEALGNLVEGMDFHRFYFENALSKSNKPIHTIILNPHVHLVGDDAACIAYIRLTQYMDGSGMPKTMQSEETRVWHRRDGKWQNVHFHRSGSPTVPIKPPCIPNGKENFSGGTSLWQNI

Series 1 — technique: von Frey test; measurement: paw withdrawal threshold
SMILES: COc1cc(C(=O)OCCCN2CCCN(CCCOC(=O)c3cc(OC)c(OC)c(OCc4ccc([N+](=O)[O-])cc4)c3)CC2)cc(OC)c1OC
mechanical pain; mouse, STZ diabetic neuropathy; intravenous, 30 mg/kg, 3 h post-dose, first injection, day 8: 0.1 g and 0.44 g and 0.51 g and 0.23 g and 0.32 g
mechanical pain; mouse, STZ diabetic neuropathy; intravenous, 30 mg/kg, 1 h post-dose, first injection, day 8: 0.98 g and 0.51 g and 0.27 g and 0.36 g
mouse, CFA inflammatory pain; subcutaneous, 10 mg/kg, 24 h post-dose, third injection, day 5: 0.32 g and 0.23 g and 0.4 g
mouse, CFA inflammatory pain; intravenous, dose not given, 5 h post-dose, third injection, day 5: 0.51 g and 0.75 g and 0.98 g and 0.44 g and 0.65 g
mouse, CFA inflammatory pain; intraplantar, 10 µg, 5 h post-dose, day 3 after CFA: 0.75 g and 1.3 g and 0.51 g and 0.98 g
mouse, CFA inflammatory pain; intravenous, dose not given, 24 h post-dose, third injection, day 5: 0.51 g and 0.44 g and 0.98 g

Series 2 — effect on: kinase activity; measurement: inhibition
Compound: CNc1ncc2cc(-c3cc(OC)cc(OC)c3Cl)c(=O)n(CCc3ccc(NC(=O)C(C#N)=CC(C)(C)N4CCOCC4)cc3)c2n1
PRKACA (Homo sapiens, UniProt P17612); 0.1 µM: 5%
TEK (Homo sapiens, UniProt Q02763); 1 µM: 6%
PIK3CB (Homo sapiens, UniProt P42338); 1 µM: -9%
CAMK2D (Homo sapiens, UniProt Q13557); 0.1 µM: -1%
PRKD3 (Homo sapiens, UniProt O94806); 1 µM: 9%
SRPK2 (Homo sapiens, UniProt P78362); 0.1 µM: 2%
Cyclin-dependent kinase 9, with cyclin T1 (CDK9, Homo sapiens, UniProt P50750); 1 µM: -1%
PDGFRA (Homo sapiens, UniProt P16234); 0.1 µM: 15%
PRKCA (Homo sapiens, UniProt P17252); 0.1 µM: -11%
CDK7 (Homo sapiens, UniProt P50613); 1 µM: 0%
DYRK2 (Homo sapiens, UniProt Q92630); 1 µM: 0%
PHKG1 (Homo sapiens, UniProt Q16816); 0.1 µM: -6%
STK24 (Homo sapiens, UniProt Q9Y6E0); 0.1 µM: 1%
EPHB4 (Homo sapiens, UniProt P54760); 0.1 µM: 1%
JAK2 (Homo sapiens, UniProt O60674); 1 µM: 0%
FES (Homo sapiens, UniProt P07332); 1 µM: 7%
DCLK2 (Homo sapiens, UniProt Q8N568); 0.1 µM: 4%
ABL2 (Homo sapiens, UniProt P42684); 0.1 µM: 1%
DYRK4 (Homo sapiens, UniProt Q9NR20); 0.1 µM: -4%
CDK2 (Homo sapiens, UniProt P24941); 0.1 µM: -1%
STK4 (Homo sapiens, UniProt Q13043); 1 µM: 5%

Series 3 — organism: Arabidopsis thaliana; strain: Col-0; measurement: hypocotyl length
SMILES: CCCN1C(=O)C(O)(C(=O)O)Oc2cc(F)ccc21 (stereo not shown)
6.25 µg/mL, seed germination, repetition mean: 2.15 cm
25 µg/mL, seed germination, repetition mean: 1.72 cm
25 µg/mL, seed germination, single repetition: 1.7 cm and 1.8 cm and 1.67 cm and 1.69 cm and 1.77 cm
50 µg/mL, seed germination, single repetition: 1.26 cm and 1.25 cm
6.25 µg/mL, seed germination, single repetition: 2.16 cm and 2.2 cm and 2.11 cm
100 µg/mL, seed germination, single repetition: 0.71 cm and 0.75 cm and 0.77 cm and 0.74 cm
50 µg/mL, seed germination, repetition mean: 1.26 cm
100 µg/mL, seed germination, repetition mean: 0.752 cm
3.125 µg/mL, seed germination, repetition mean: 2.29 cm

Series 4 — cell line: U-87 MG; concentration: concentration not given; relative to: DMSO; measurement: log2 fold change
SMILES: CCN1/C(=C/C=C2\CCCC(/C=C/C3=[N+](CC)c4ccccc4C3(C)C)=C2NCCCCCCCCN2CCC(Nc3nc4ccccc4n3Cc3ccc(F)cc3)CC2)C(C)(C)c2ccccc21
item: ZWINT mRNA: -1.59
item: ARG2 mRNA: 1.41
item: ERLIN2 mRNA: -0.973
item: SNX7 mRNA: -0.919
item: RPTN mRNA: -3.39
item: GORASP2 mRNA: 0.874
item: SYT7 mRNA: 2.3
item: SLC2A4RG mRNA: -1.34
item: VTI1A mRNA: 1.02
item: ARSG mRNA: 1.05
item: SLIT3 mRNA: 1.32
item: COBLL1 mRNA: 1.4
item: ADCY3 mRNA: -1.24
item: TUBB3 mRNA: -2.42
item: AIM2 mRNA: -1.92
item: GBP1 mRNA: -2.92

Series 5 — cell line: HCC1569; technique: in-cell western; item: CDK1 phospho-Thr14; measurement: pCDK1 (Thr14) level
Compound: Cc1ccc(O)c(C)c1-c1cnc2[nH]c(-c3cnc(N4CCC(CCN5CCN(c6cc7c(cc6F)c(N6CCC(=O)NC6=O)nn7C)CC5)CC4)nc3)cc2c1C#N
333.33 nM: 124 RLU and 121 RLU
4.12 nM: 22.5 RLU and 25.8 RLU
111.11 nM: 53.1 RLU and 58.4 RLU

For quick reference, copied from above (series 4):
item: GORASP2 mRNA: 0.874
item: ARG2 mRNA: 1.41
item: SLIT3 mRNA: 1.32
item: TUBB3 mRNA: -2.42
item: ADCY3 mRNA: -1.24
